Published values gathered from unrelated publications.
Numbered parts are unrelated; each lists some results of a single study. “And” joins repeats or separate records; there may be more than shown.
Chain of UniProt P29376 (whole entry, looked up): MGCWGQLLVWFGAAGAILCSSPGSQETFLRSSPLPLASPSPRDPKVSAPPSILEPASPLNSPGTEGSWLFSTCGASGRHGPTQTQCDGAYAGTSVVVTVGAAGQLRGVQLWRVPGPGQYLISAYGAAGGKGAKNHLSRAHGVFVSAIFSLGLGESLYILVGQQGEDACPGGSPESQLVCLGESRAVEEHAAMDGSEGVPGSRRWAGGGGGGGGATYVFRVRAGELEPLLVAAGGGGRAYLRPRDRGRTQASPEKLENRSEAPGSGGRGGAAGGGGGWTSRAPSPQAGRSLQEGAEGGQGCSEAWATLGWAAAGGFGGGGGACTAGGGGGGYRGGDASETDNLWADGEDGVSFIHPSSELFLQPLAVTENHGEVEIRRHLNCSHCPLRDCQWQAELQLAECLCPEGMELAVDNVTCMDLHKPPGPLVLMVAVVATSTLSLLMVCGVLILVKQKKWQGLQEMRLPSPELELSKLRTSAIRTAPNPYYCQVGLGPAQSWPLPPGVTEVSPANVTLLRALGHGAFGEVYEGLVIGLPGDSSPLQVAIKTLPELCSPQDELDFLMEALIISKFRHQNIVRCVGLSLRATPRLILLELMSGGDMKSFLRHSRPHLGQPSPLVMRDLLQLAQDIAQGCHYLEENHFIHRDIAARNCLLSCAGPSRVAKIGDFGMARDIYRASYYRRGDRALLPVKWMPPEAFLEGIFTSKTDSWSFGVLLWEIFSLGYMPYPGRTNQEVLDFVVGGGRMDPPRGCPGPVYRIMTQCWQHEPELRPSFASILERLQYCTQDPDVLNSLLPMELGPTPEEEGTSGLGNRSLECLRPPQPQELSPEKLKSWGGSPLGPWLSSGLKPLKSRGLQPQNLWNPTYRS
Chain of UniProt Q13043 (whole entry, looked up): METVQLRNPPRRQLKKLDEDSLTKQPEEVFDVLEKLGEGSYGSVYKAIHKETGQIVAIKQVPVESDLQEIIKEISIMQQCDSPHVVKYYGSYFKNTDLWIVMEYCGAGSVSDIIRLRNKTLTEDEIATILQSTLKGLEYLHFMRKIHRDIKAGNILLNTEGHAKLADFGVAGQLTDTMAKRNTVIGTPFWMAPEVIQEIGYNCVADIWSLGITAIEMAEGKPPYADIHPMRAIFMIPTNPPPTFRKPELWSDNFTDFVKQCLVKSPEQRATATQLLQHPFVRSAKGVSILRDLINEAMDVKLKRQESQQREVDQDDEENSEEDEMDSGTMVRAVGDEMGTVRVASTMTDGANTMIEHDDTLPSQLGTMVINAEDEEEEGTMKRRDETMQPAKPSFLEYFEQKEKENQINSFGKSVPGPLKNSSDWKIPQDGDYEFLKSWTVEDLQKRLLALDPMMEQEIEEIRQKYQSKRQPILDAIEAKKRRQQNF
Chain of UniProt Q59H18 (whole entry, looked up): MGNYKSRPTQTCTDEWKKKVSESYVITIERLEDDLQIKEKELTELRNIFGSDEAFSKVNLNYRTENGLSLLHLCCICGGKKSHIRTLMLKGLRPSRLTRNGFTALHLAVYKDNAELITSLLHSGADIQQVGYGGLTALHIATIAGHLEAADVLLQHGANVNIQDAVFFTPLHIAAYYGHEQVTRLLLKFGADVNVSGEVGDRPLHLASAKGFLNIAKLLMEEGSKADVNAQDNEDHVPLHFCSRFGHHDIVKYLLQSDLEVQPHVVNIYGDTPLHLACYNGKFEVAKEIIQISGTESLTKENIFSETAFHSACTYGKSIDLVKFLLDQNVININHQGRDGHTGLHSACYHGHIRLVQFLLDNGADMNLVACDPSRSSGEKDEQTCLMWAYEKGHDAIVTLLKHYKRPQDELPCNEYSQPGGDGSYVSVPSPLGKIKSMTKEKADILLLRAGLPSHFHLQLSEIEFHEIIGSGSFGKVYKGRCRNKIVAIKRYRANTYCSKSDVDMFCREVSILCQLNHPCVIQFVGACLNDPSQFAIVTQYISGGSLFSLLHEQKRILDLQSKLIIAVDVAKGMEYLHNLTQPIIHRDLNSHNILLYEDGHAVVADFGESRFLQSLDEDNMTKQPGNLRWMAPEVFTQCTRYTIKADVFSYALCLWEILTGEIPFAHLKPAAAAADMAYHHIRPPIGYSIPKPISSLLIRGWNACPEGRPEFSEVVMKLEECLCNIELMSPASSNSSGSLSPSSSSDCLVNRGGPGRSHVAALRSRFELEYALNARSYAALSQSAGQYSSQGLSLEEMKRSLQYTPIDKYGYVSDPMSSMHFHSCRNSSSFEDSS
Chain of UniProt O15197 (whole entry, looked up): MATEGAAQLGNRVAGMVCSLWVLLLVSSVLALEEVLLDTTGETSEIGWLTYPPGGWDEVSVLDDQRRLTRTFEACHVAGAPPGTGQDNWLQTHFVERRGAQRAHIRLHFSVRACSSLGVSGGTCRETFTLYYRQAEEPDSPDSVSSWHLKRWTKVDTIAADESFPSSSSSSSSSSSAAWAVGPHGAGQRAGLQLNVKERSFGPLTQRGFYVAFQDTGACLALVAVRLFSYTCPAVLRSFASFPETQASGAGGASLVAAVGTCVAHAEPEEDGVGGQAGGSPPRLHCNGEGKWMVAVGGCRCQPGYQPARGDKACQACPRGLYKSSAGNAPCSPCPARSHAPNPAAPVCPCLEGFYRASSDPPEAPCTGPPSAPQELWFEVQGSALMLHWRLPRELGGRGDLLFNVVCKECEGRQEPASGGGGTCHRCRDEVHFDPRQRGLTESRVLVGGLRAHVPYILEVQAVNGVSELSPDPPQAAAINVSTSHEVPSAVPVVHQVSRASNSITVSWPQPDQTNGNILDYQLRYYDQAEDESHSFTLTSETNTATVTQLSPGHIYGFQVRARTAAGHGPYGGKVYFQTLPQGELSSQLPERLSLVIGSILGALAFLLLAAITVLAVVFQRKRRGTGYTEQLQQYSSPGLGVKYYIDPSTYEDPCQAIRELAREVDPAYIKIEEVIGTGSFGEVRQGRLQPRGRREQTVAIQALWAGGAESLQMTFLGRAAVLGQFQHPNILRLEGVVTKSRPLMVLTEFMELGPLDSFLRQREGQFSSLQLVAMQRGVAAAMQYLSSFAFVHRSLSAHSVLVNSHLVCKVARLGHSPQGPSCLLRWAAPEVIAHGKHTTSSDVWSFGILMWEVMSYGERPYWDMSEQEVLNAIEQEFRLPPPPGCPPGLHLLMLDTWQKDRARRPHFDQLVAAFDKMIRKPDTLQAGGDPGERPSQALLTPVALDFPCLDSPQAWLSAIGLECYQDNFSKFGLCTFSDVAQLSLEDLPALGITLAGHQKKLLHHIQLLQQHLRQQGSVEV
Chain of UniProt Q2M2I8 (whole entry, looked up): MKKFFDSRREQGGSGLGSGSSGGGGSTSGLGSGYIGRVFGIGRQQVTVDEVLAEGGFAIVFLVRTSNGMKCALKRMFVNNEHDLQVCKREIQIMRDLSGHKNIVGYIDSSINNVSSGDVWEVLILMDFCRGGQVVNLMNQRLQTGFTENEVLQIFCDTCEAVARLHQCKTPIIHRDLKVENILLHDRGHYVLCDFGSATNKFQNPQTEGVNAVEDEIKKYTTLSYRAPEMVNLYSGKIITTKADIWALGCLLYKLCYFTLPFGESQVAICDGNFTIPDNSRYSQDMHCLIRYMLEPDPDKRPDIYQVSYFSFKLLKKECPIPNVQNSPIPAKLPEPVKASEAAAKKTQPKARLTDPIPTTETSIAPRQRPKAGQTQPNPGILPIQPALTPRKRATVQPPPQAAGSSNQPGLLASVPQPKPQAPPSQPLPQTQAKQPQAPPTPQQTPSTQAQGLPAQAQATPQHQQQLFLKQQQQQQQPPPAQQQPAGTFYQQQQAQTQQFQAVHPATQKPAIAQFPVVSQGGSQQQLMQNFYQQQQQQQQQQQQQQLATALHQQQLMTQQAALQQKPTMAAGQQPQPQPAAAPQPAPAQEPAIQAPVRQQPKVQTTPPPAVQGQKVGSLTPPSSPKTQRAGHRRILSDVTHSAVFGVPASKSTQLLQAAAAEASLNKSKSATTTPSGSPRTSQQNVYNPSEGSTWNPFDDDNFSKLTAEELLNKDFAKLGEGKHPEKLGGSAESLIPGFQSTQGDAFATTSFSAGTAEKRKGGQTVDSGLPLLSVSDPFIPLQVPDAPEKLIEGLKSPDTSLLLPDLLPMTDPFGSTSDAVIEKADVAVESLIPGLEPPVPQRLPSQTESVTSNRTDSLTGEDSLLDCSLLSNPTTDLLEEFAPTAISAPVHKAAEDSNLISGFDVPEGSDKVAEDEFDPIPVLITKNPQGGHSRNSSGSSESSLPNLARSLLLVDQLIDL
Chain of UniProt Q8TDX7 (whole entry, looked up): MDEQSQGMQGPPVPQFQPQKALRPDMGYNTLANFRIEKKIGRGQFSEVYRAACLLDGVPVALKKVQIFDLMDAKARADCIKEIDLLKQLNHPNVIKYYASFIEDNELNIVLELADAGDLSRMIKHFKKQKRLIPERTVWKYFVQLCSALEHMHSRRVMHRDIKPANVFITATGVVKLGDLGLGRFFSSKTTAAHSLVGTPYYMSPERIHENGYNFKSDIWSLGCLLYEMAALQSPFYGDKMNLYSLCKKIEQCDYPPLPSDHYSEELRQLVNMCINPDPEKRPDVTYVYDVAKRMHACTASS

Block 1 — cell line: mouse MPNST tumor cells; method: high-content immunofluorescence imaging; refers to: nuclear SOX9; tested at: 10 µM; time: 12 h; setting: mean of 2 replicates; reference: DMSO control; reading: higher = more nuclear SOX9
| SMILES | nuclear SOX9 intensity |
| --- | --- |
| OCC(O)CN1CCN(c2ccccc2)CC1 (racemic) | 97.6 % of DMSO |
| CC(C)(C)C(=O)C(=Nc1ccc(Cl)cc1)NNc1ccc(Cl)cc1 | 105 % of DMSO |
| C/C(=C(\CCOP(=O)(O)O)SC(=O)c1ccccc1)N(C=O)Cc1cnc(C)nc1N | 100 % of DMSO |
| O=S(=O)(O)CCS | 88.9 % of DMSO |
| COc1cccc(OC)c1-c1cc(C(=O)NC2(C(=O)O)C3CC4CC(C3)CC2C4)nn1-c1ccc(C(=O)N(C)CCCN(C)C)cc1C(C)C (stereo not shown) | 98.2 % of DMSO |
| CC(=O)Nc1ccc(OCC(O)CNC(C)C)cc1 (stereo not shown) | 108 % of DMSO |

Block 2 — host: human; medium: microsomes or S9; tested at: 2 µM; time: 0.5 h
| SMILES | remaining compound [%] |
| --- | --- |
| COCC1CCCN(c2nnc(-c3n[nH]c4c3CCCC4)n2C)CC1 (stereo not shown) | 74.1 |
| c1ccc(-n2nnnc2Oc2ccc(-c3nc4ccccc4s3)cc2)cc1 | > 100 |
| Cn1nc(C(=O)N2CCOCC2)cc1C(=O)Nc1ccc(F)cc1OC(F)F | 62.5 |
| COC(=O)c1ccc(C(=O)N2CCN(C(C)=O)N(C(=O)C[C@@H](Cc3cc(F)c(F)cc3F)NC(=O)OC(C)(C)C)CC2)cc1 | 9.35 |
| CC(c1cncs1)N(C)C(=O)c1cnn(C(C)C)c1 (stereo not shown) | 91 |

Block 3 — cell line: HaCaT; tested at: 100 µM; time: 36 h
| Structure (SMILES) | viability |
| --- | --- |
| COc1ccc2[nH]c([S+]([O-])Cc3ncc(C)c(OC)c3C)nc2c1 (stereo not shown) | 82.1% |
| CC(=O)OC(C)C(C)C(=O)OC[C@@]12[C@H]3C[C@]4(C)C(=CC[C@@H]5[C@@]6(C)CC[C@H](O[C@@H]7O[C@H](C(=O)O)[C@@H](O[C@@H]8O[C@H](CO)[C@@H](O)[C@H](O)[C@H]8O)[C@H](O)[C@H]7O[C@@H]7OC[C@@H](O)[C@H](O)[C@H]7O)[C@@](C)(CO)[C@@H]6CC[C@]54C)[C@@H]1CC(C)(C)[C@H](O3)[C@@H]2O (stereo partly shown) | 5.93% |
| Oc1ncnc2[nH]ncc12 | 94.2% |
| COc1ccc2[nH]c(SCc3ncc(C)c(OC)c3C)nc2c1 | 50.6% |
| Nc1cccc2c1CN(C1CCC(=O)NC1=O)C2=O (stereo not shown) | 92.2% |
| C[C@H]1COc2c(C3(N)CC3)c(F)cc3c(=O)c(C(=O)O)cn1c23 | 78.3% |
| CCN(CC)CCOC(=O)C(c1ccccc1)c1ccccc1 | 69.7% |

Block 4 — tested at: 1 µM
Compound: CCS(=O)(=O)c1cc2cc(C[C@@](O)(CC(C)(C)c3ccc(F)cc3C(N)=O)C(F)(F)F)[nH]c2cn1
| target | observed | method | remaining binding |
| --- | --- | --- | --- |
| CAMK1 (Homo sapiens, UniProt Q14012) | cell-free assay | competition with immobilised ligand | 57% |
| Cyclin-dependent kinase 4, with cyclin D1 (CDK4, Homo sapiens, UniProt P11802) | cell-free assay | competition with immobilised ligand | 97% |
| LRRK2 (Homo sapiens, UniProt Q5S007) | cell-free assay | competition with immobilised ligand | 42% |
| LTK (Homo sapiens, UniProt P29376) | cell-free assay | competition with immobilised ligand | 100% |
| EPHB6 (Homo sapiens, UniProt O15197) | cell-free assay | competition with immobilised ligand | 100% |
| AAK1 (Homo sapiens, UniProt Q2M2I8) | binding |  | 100% |
| DCLK1 (Homo sapiens, UniProt O15075) | cell-free assay | competition with immobilised ligand | 100% |
| STK4 (Homo sapiens, UniProt Q13043) | cell-free assay | competition with immobilised ligand | 100% |
| TGFBR2 (Homo sapiens, UniProt P37173) | cell-free assay | competition with immobilised ligand | 100% |
| NEK7 (Homo sapiens, UniProt Q8TDX7) | cell-free assay | competition with immobilised ligand | 95% |
| DYRK1A (Homo sapiens, UniProt Q13627) | cell-free assay | competition with immobilised ligand | 66% |
| BMX (Homo sapiens, UniProt P51813) | cell-free assay | competition with immobilised ligand | 50% |
| SRC (Homo sapiens, UniProt P12931) | cell-free assay | competition with immobilised ligand | 100% |
| CLK1 (Homo sapiens, UniProt P49759) | cell-free assay | competition with immobilised ligand | 100% |
| Tyrosine-protein kinase ABL1, phosphorylated (ABL1, Homo sapiens, UniProt P00519) | cell-free assay | competition with immobilised ligand | 71% |
| CIT (Homo sapiens, UniProt O14578) | cell-free assay | competition with immobilised ligand | 96% |
| TNNI3K (Homo sapiens, UniProt Q59H18) | cell-free assay | competition with immobilised ligand | 100% |

Block 5 — method: flow cytometry; host: mice bearing MC38-OVA tumours; medium: tumour-infiltrating CD8+ T cells; dose: dose not given
SMILES: CC(=O)N[C@@H](Cc1c[nH]c2ccccc12)C(=O)N[C@@H](CCC(=O)C=[N+]=[N-])C(=O)OC(C)C
| refers to | reference | cell fraction |
| --- | --- | --- |
| CD62L+ CD8+ cells | CD8+ TILs | 25.7% and 30.1% and 25.9% and 28.3% |
| TCF1- TOX+ CD8+ cells | OVA-tetramer+ CD8+ TILs | 6.63% and 14.9% and 15.3% and 13.6% and 16.2% and 10.8% and 18% and 14.8% |
| TCF1- TOX+ CD8+ cells | CD8+ TILs | 16.8% and 16.4% and 15.7% and 15.6% and 18.4% and 17.7% and 26.8% |
| PD-1+ LAG-3+ cells | CD8+ TILs | 23% and 21.3% and 26.7% and 29.2% |

Mixed results
| Structure (SMILES) | host | dose | setting | quantity | result |
| --- | --- | --- | --- | --- | --- |
| CC(C)n1cnc(-c2ccc(F)cc2)c1-c1ncc(C(=O)Nc2ccc(N3CCN(C)CC3)cc2)[nH]1 | IPF patients | 60 mg once daily | adverse event | Haemorrhoids incidence | 0% |

For quick reference, copied from above (block 4):
| target | observed | method | remaining binding |
| --- | --- | --- | --- |
| BMX (Homo sapiens, UniProt P51813) | cell-free assay | competition with immobilised ligand | 50% |
| SRC (Homo sapiens, UniProt P12931) | cell-free assay | competition with immobilised ligand | 100% |
| CLK1 (Homo sapiens, UniProt P49759) | cell-free assay | competition with immobilised ligand | 100% |
| Tyrosine-protein kinase ABL1, phosphorylated (ABL1, Homo sapiens, UniProt P00519) | cell-free assay | competition with immobilised ligand | 71% |
| CIT (Homo sapiens, UniProt O14578) | cell-free assay | competition with immobilised ligand | 96% |
| TNNI3K (Homo sapiens, UniProt Q59H18) | cell-free assay | competition with immobilised ligand | 100% |
